Results gathered from unrelated publications.
A part holds a random share of what one study measured.
Sequence of UniProt Q9BQI3 (whole entry, looked up): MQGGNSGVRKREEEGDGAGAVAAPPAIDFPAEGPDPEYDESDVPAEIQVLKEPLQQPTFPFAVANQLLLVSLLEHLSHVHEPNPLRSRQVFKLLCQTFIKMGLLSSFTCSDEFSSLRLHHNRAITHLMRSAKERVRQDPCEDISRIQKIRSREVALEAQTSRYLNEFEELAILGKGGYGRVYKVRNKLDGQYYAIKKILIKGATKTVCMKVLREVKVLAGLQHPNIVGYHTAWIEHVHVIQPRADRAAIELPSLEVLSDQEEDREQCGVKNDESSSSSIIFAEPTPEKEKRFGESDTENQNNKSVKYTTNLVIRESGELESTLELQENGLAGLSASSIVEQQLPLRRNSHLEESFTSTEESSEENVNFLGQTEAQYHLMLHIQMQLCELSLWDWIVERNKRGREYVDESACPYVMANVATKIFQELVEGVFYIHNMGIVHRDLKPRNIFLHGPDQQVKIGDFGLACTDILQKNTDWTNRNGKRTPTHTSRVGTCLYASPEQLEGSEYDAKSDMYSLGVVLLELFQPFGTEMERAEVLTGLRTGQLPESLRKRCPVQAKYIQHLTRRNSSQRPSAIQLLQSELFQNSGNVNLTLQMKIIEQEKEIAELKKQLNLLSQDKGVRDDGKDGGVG
Sequence of UniProt P09769 (whole entry, looked up): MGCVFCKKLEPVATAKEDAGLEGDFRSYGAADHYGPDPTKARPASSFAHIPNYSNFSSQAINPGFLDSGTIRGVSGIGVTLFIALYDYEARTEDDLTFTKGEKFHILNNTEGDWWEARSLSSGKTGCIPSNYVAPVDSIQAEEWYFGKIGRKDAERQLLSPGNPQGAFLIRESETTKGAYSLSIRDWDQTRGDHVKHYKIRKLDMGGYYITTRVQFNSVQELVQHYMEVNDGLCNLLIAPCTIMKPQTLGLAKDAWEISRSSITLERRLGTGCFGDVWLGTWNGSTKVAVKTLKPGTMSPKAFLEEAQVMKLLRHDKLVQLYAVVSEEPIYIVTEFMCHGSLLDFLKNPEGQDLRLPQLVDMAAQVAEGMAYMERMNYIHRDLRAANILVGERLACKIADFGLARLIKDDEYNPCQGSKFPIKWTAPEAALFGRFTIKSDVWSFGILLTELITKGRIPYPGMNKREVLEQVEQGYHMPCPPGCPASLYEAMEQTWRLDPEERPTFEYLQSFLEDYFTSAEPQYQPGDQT
Sequence of UniProt Q6DT37 (whole entry, looked up): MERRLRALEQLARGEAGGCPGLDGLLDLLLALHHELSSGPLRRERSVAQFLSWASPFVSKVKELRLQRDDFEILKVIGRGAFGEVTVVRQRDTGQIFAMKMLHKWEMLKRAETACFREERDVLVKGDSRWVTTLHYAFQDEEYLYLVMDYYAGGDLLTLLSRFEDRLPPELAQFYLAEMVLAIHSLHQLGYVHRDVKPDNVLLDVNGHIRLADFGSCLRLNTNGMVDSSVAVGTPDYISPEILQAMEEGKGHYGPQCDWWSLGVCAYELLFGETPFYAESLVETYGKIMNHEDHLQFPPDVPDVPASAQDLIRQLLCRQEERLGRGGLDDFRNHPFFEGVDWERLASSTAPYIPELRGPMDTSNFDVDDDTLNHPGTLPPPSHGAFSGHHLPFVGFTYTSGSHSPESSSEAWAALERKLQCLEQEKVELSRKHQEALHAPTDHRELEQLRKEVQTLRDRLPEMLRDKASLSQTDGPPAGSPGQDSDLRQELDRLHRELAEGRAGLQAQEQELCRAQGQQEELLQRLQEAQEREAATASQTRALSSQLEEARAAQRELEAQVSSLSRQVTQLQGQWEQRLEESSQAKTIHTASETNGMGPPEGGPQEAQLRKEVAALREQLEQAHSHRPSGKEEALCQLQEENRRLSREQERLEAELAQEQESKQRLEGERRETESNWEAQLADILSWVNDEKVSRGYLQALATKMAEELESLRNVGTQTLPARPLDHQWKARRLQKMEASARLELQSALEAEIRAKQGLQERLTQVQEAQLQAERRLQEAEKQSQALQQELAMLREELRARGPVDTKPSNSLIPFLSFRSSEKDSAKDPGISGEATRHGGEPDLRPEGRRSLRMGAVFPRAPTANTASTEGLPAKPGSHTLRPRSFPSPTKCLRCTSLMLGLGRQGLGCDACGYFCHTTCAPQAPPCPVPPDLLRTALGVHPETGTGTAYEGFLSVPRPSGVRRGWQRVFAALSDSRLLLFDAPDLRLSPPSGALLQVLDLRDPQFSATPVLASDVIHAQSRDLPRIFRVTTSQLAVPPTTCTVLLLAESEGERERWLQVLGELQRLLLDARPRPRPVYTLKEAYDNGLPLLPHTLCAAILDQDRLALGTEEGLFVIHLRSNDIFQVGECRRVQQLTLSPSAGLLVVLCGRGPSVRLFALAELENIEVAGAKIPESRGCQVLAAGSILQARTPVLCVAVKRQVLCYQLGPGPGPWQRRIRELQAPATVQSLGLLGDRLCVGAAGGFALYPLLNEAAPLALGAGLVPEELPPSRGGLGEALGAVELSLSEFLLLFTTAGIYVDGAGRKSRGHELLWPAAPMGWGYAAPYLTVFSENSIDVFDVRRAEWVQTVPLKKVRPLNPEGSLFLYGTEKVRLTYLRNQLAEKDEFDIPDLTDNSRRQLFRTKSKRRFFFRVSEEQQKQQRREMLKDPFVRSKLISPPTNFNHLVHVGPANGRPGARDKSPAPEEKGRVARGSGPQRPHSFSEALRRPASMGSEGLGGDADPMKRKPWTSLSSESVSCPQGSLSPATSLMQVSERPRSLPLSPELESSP
Sequence of UniProt O60285 (whole entry, looked up): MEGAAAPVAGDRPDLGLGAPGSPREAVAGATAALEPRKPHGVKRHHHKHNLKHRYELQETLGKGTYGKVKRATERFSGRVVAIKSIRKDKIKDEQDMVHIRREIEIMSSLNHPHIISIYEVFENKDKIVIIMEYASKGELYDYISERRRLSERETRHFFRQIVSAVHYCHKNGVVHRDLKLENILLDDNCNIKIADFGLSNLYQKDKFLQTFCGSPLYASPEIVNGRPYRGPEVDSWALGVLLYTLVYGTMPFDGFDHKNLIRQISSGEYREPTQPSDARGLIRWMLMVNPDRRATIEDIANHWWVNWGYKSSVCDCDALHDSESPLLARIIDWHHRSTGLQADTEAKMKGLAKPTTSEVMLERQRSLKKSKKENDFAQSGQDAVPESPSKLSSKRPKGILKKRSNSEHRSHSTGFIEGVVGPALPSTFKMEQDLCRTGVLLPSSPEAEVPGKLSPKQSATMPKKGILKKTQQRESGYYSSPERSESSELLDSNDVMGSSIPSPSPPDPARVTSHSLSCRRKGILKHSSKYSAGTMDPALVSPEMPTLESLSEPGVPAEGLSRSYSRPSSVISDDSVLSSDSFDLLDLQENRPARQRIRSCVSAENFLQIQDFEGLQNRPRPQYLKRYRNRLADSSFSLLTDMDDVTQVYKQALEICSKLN
Sequence of UniProt P22607 (whole entry, looked up): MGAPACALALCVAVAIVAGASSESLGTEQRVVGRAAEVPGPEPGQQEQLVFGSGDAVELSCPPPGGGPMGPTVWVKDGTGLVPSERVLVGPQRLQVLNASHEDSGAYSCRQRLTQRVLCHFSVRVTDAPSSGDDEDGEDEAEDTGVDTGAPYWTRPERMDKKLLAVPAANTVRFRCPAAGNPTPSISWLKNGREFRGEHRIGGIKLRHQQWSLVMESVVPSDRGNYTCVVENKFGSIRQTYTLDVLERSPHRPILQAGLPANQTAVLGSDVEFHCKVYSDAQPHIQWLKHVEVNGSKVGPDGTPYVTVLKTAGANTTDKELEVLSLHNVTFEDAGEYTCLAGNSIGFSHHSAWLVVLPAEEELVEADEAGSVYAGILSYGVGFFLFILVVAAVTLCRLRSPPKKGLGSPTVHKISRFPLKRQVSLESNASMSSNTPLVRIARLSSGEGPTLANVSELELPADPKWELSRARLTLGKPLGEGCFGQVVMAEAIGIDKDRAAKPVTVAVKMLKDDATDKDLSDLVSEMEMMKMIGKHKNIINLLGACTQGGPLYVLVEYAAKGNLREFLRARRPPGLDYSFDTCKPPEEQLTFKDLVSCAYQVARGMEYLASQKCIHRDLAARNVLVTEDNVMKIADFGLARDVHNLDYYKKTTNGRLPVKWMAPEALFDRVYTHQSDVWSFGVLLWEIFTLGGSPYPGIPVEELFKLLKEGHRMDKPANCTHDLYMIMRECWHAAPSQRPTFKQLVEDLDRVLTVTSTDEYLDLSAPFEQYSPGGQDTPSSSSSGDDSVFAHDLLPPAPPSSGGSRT
Sequence of UniProt Q92772 (whole entry, looked up): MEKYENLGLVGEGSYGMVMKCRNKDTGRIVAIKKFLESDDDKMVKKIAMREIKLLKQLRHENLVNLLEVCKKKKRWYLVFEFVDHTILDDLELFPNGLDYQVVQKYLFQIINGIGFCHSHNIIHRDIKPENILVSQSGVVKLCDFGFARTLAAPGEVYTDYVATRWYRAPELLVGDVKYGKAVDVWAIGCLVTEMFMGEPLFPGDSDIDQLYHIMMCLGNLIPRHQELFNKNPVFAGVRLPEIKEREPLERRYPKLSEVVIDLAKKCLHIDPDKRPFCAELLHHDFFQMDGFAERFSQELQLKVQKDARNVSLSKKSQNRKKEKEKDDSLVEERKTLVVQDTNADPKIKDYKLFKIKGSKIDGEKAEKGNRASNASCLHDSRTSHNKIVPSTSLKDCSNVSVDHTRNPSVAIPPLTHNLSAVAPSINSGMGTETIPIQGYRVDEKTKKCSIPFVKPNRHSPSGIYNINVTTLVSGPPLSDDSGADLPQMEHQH

Study 1 — method: phase 2a trial; host: idiopathic pulmonary fibrosis patients
Structure (SMILES): CC(C)n1cnc(-c2ccc(F)cc2)c1-c1ncc(C(=O)Nc2ccc(N3CCN(C)CC3)cc2)[nH]1
item | dose | notes | adverse event incidence [%]
allergic conjunctivitis | 60 mg once daily | grade 4 | 0
proteinuria | dose not given | grade 2, all arms pooled | 0
gingivitis | 60 mg once daily | grade 2 | 0

Study 2 — host: human; matrix: microsomes or S9; concentration: 2 µM; time: 0.5 h
SMILES | remaining compound
O=C(O)c1ccc(-c2nc3cc(Cl)c(Cl)cc3[nH]2)cc1 | 29.6%
NC1(c2ccccc2)C(=O)Nc2ccccc2C1=O (centres unmarked) | 96.7%
CCCn1ccnc1CN(C)Cc1cnn(-c2cccc(OC)c2)c1 | 4.81%
O=C(NC1CCCC1)N1Cc2c(sc3c2CCCC3)-n2cccc2C1c1cccc(F)c1 (centres unmarked) | 3.02%
COc1ccc(OCc2nc3c4c(-c5ccccc5)c(-c5ccccc5)n(CCO)c4ncn3n2)cc1 | 1.12%
COC(=O)c1cccc(NC(=O)N2Cc3c(sc4c3CCCC4)-n3cccc3C2C(C)C)c1 (centres unmarked) | 5.28%

Study 3 — organism: Sarcocystis neurona; read-out: parasite activity; concentration: 10 µM; time: 96 h
SMILES | activity class
COc1cc(C)nc(-n2nc(C)cc2OC)n1 | inactive
NC12CC3CC(CC(C3)C1)C2 | inactive
Nc1nc(F)nc2c1ncn2[C@@H]1O[C@H](CO)[C@@H](O)[C@@H]1O | inactive
S=c1[nH]cnc2nc[nH]c12 | inactive
CCc1cccc2c3c([nH]c12)C(CC)(CC(=O)O)OCC3 (centres unmarked) | inactive
O=C(c1ccc(OCCN2CCCCC2)cc1)c1c(-c2ccc(O)cc2)sc2cc(O)ccc12 | inactive
OC(Cn1cncn1)(Cn1cncn1)c1ccc(F)cc1F | inactive

Study 4 — concentration: 1 µM
Structure (SMILES): Cc1cc(-n2nc(Cc3cc(F)cc(C(F)(F)F)c3)nc2C)ccc1C(N)=O
target | read-out | method | remaining binding
ULK1 (Homo sapiens, UniProt O75385) | cell-free assay | competition with immobilised ligand | 100%
KIT (Homo sapiens, UniProt P10721, V559D) | cell-free assay | competition with immobilised ligand | 83%
TESK1 (Homo sapiens, UniProt Q15569) | cell-free assay | competition with immobilised ligand | 100%
MAPK8 (Homo sapiens, UniProt P45983) | cell-free assay | competition with immobilised ligand | 78%
MUSK (Homo sapiens, UniProt O15146) | cell-free assay | competition with immobilised ligand | 100%
CDKL2 (Homo sapiens, UniProt Q92772) | cell-free assay | competition with immobilised ligand | 100%
Tyrosine-protein kinase ABL1, non-phosphorylated (ABL1, Homo sapiens, UniProt P00519, F317I) | binding | competition with immobilised ligand | 100%
ACVRL1 (Homo sapiens, UniProt P37023) | binding | competition with immobilised ligand | 100%
FGFR3 (Homo sapiens, UniProt P22607) | cell-free assay | competition with immobilised ligand | 100%
COQ8A (Homo sapiens, UniProt Q8NI60) | cell-free assay | competition with immobilised ligand | 100%
EIF2AK1 (Homo sapiens, UniProt Q9BQI3) | cell-free assay | competition with immobilised ligand | 100%
CDC42BPG (Homo sapiens, UniProt Q6DT37) |  | competition binding | 100%
PIK3CA (Homo sapiens, UniProt P42336, M1043I) | cell-free assay | competition with immobilised ligand | 95%
NUAK1 (Homo sapiens, UniProt O60285) | cell-free assay | competition with immobilised ligand | 100%
FGR (Homo sapiens, UniProt P09769) | cell-free assay | competition with immobilised ligand | 94%

Study 5 — cell line: A-375; concentration: 100 µM; time: 18 h
SMILES | viability
Cc1nc(-c2ccc(OCC(C)C)c(C#N)c2)sc1C(=O)O | 94.8%
CC(=O)Nc1ccc(CC(=O)O)cc1 | 103%
Cc1c(Nc2ncccc2C(=O)O)cccc1C(F)(F)F | 86.2%
CO/N=C(\C(=O)N[C@@H]1C(=O)N2C(C(=O)OCOC(=O)C(C)(C)C)=C(/C=C\c3scnc3C)CS[C@H]12)c1csc(N)n1 | 60.4%

A few entries again (study 4):
target | read-out | method | remaining binding
NUAK1 (Homo sapiens, UniProt O60285) | cell-free assay | competition with immobilised ligand | 100%
CDC42BPG (Homo sapiens, UniProt Q6DT37) |  | competition binding | 100%
PIK3CA (Homo sapiens, UniProt P42336, M1043I) | cell-free assay | competition with immobilised ligand | 95%
MUSK (Homo sapiens, UniProt O15146) | cell-free assay | competition with immobilised ligand | 100%
